Measurements of several laboratories.
Protocols differ between the studies behind these lines. Values joined by “and” are separate records of one study, mostly repeats; a detail may differ. Numbers after ± are the reported error.

SMILES | test | test system | conditions | how to read | quantity | result
CN1CCC[C@]1(C)/C=C/S(=O)(=O)NC(=O)Nc1c2c(cc3c1CC(O)C3)CCC2 (stereo partly drawn) |  | human, plasma | oral, 12.5 mg twice daily of parent drug, day 14, metabolite of dosed drug |  | Tmax at second steady-state dose | 4 h
CC[C@H](C)[C@@H]1NC(=O)[C@H](Cc2ccc(O)cc2)NC(=O)CCCSC[C@@H](C(=O)N(CC(=O)N[C@@H](CC(C)C)C(=O)NCC(N)=O)Cc2ccc(F)cc2)NC(=O)[C@H](CC(N)=O)NC(=O)[C@H](CCC(N)=O)NC1=O |  | human | intranasal, 50 µg single dose |  | serious adverse events | 0%
Cc1nn(-c2nc3c(F)cc(F)cc3s2)c(O)c1C(c1ccc(C(F)(F)F)cc1)c1c(C)nn(-c2nc3c(F)cc(F)cc3s2)c1O |  | ICR mouse, plasma | oral, 50 mg/kg |  | MRT(0-inf) observed | 4.2 h and 8 h and 4.11 h
Cc1nc(N)nc2c1C(=O)N[C@@H](c1ccc(F)cc1-c1cccc(O[11CH3])n1)C2 | ex vivo biodistribution | healthy mice, pancreas | 60 min post-injection, baseline, vehicle pre-treatment |  | SUV | 2.5 ± 0.3
O=C(CN1CCN(CC(=O)NCc2ncccc2O)CCN(CC(=O)NCc2ncccc2O)CCN(CC(=O)NCc2ncccc2O)CC1)NCc1ncccc1O.[177Lu+3] |  | Sprague-Dawley rat, pancreas | intravenous (tail vein), dose not given, 2 h |  | tissue uptake | 0.026 ± 0.023 % injected dose/g
CN1CCCNC(=O)c2cccc(c2)C(=O)NCCCN(C)CCCNc2cccc3c2C(=O)c2cccc(c2C3=O)NCCC1 |  | nude mice, serum | dose not given, 10 days |  | ALT | 29 ± 4.1 U/L
C=CC(=O)Nc1cc(Nc2nccc(-c3cn(C)c4ccccc34)n2)c(OC)cc1N(C)CCNC | storage stability | human plasma | 5 h, on ice, medium QC level |  | recovery | 94.9%
CCCCCCCOc1ccc(CC[C@](N)(CO)COP(=O)(O)O)cc1C(F)(F)F |  | healthy human males, plasma | oral, 0.25 mg, day 1, median |  | Tmax | 12 h
CCCCN1C(=O)c2cccc3c(NCCN4CCOCC4)ccc(c23)C1=O |  | toluene |  |  | fluorescence quantum yield | 0.14
CC(C)OCCOCc1ccc(OCC(O)CN(N=O)C(C)C)cc1 (stereo not drawn) | duplex sequencing, refers to: mutation frequency | NMRI mouse, bone marrow | oral, 284.5 mg/kg/day, 4 weeks | relative to: vehicle | fold change | 1.96
C=CC(=O)Nc1cc(Nc2nccc(-c3c[nH]c4ccccc34)n2)c(OC)cc1N(C)CCN(C)C | storage stability | human plasma | 5 h, on ice, medium QC level |  | recovery | 90.2%
CC(C(=O)O)n1nc(Cn2cc3cc(OCC[18F])c(Cl)cc3n2)c2ccccc2c1=O (racemic) |  | rat, heart | 2 h |  | tracer uptake | 0.1 %ID/g
N=C(N)NCCC[C@@H]1NC(=O)[C@H](CO)NC(=O)[C@@H](NC(=O)[C@H](CO)NC(=O)[C@H](CO)NC(=O)[C@H](Cc2c[nH]c3ccccc23)NC(=O)CNC(=O)[C@H](CO)NC(=O)[C@@H](N)Cc2c[nH]c3ccccc23)CSSC[C@@H](C(=O)NCC(=O)O)NC(=O)[C@H](CO)NC1=O |  | patients, plasma | intravenous, 10 mg/kg, thrice weekly, geometric mean |  | volume of distribution (Vz) | 395 L
CC(=O)N([O-])CCCCCNC(=O)CCC(=O)N([O-])CCCCCNC(=O)CCC(=O)N([O-])CCCCCN.[89Zr+4] | radio-TLC | aqueous buffer | 7 d, pH 7.2, 37 °C, 89Zr-labelled complex, together with: MgCl2 10-fold excess |  | intact complex | 98.7 ± 1.1%
CC(C)(F)CC(NC(c1ccc(-c2ccc(S(C)(=O)=O)cc2)cc1)C(F)(F)F)C(=O)NCC#CBr (stereo not drawn) |  | PBS | 100 µM, 23 h, pH 7.45, 37 °C, together with: cysteine 10 mM |  | cysteine adduct formation | 16%
CCCC[C@H](NC(=O)CNC(=O)CNC(=O)[C@H](CCCCNC(=O)C(C)c1ccc(CC(C)C)cc1)NC(=O)CN1CCN(CC(=O)O)CCN(CC(=O)O)CCN(CC(=O)O)CC1)C(=O)N[C@H]1CC(=O)NCCCC[C@@H](C(N)=O)NC(=O)[C@H](Cc2c[nH]c3ccccc23)NC(=O)[C@H](CCCNC(=N)N)NC(=O)[C@@H](Cc2ccccc2)NC(=O)[C@H](Cc2c[nH]cn2)NC1=O (stereo partly drawn) [lutetium-177 labelled] |  | C57 mice, tumour | 2 h | relative to: liver | tumour-to-tissue ratio | 0.92
C=Cc1c(C)c2cc3nc(c(CC(=O)O)c4[nH]c(cc5nc(cc1[nH]2)C(C)=C5CC)c(C)c4C(=O)O)[C@@H](CCC(=O)OCCOCCOCCOC)[C@@H]3C | LC-MS | methanol-water 9:1 | 5 min, pH 2.0 |  | compound loss | 17%
CC(C)C[C@H](NC(=O)[C@@H](CCCCNC(=O)[C@@H](Cc1ccccc1)NC(=O)CCCCCCCNC(=O)CN1CCN(CC(=O)O)CCN(CC(=O)O)CCN(CC(=O)O)CC1)NC(=O)[C@H](Cc1ccc(O)cc1)NC(=O)[C@H](CO)NC(=O)[C@H](Cc1c[nH]c2ccccc12)NC(=O)[C@H](Cc1c[nH]cn1)NC(=O)[C@@H]1CCC(=O)N1)C(=O)N[C@@H](CCCNC(=N)N)C(=O)N1CCC[C@H]1C(=O)NCC(N)=O [indium-111 labelled] |  | male athymic nude mice, DU-145 prostate cancer xenograft, tumour | intravenous, 0.037 MBq, 2 h | relative to: tumour over muscle | tumour-to-tissue ratio | 4.82
C=C(NC(=O)c1csc(-c2nc3c(cc2O)-c2nc(cs2)C(=O)NC(C(C)O)C(=O)NC(=C(C)OC)c2nc(cs2)C(=O)NC2c4nc(cs4)C(=O)NC(COC(=O)c4c5c6c(cccc6n4O)COC(=O)C(OC4CC(C)(O)C(N(C)C)C(C)O4)C2OC5)c2nc-3cs2)n1)C(N)=O (stereo not drawn) |  | ICR mice, Streptococcus pneumoniae ATCC 49169 infected, immunocompromised, blood | intravenous, 32 mg/kg/day once daily |  | Tmax | 0.08 h
C[N+](C)(CCOCCOCCOCCOCCOCCOCCOCCNC(=S)Nc1ccc(CC2CN(CC(=O)[O-])CCN(CC(=O)[O-])CCN2CC(=O)[O-])cc1)C[c-]1cccc1.[64Cu+2].[Fe+2].c1cc[cH-]c1 (stereo not drawn) | pretargeted biodistribution | nude mouse, BxPC-3 xenograft | 8 h post-radioligand, 72 h lag time |  | tumour uptake | 1.1 ± 0.3 %ID/g
CC(CCC(=O)NCC(=O)O)C1CCC2C3CCC4CC(OC5OC(C(=O)O)C(O)C(O)C5O)CCC4(C)C3CC(O)C12C (stereo not drawn) |  | human, plasma | baseline |  | Cmin | 0.039 ± 0.0114 µM

SMILES | test | test system | conditions | how to read | quantity | result
O=C(Nc1cnccc1-c1ccc([18F])nc1)c1ccnc(NC(=O)C2CC2)c1 | ex vivo gamma counting | GSK-3β transgenic mice, early-stage, thalamus | intravenous, 120 min, mean, P-gp inhibitor pretreatment, together with: tariquidar 15 mg/kg iv |  | SUV | 0.063
CCCCCCCCCCCCCCCC(=O)N[C@@H](CCC(=O)NCCCC[C@H](NC(=O)[C@H](C)NC(=O)[C@H](C)NC(=O)[C@H](CCC(N)=O)NC(=O)CNC(=O)[C@H](CCC(=O)O)NC(=O)[C@H](CC(C)C)NC(=O)[C@H](Cc1ccc(O)cc1)NC(=O)[C@H](CO)NC(=O)[C@H](CO)NC(=O)[C@@H](NC(=O)[C@H](CC(=O)O)NC(=O)[C@H](CO)NC(=O)[C@@H](NC(=O)[C@H](Cc1ccccc1)NC(=O)[C@@H](NC(=O)CNC(=O)[C@H](CCC(=O)O)NC(=O)[C@H](C)NC(=O)[C@@H](N)Cc1cnc[nH]1)[C@@H](C)O)[C@@H](C)O)C(C)C)C(=O)N[C@@H](CCC(=O)O)C(=O)N[C@@H](Cc1ccccc1)C(=O)N[C@H](C(=O)N[C@@H](C)C(=O)N[C@@H](Cc1c[nH]c2ccccc12)C(=O)N[C@@H](CC(C)C)C(=O)N[C@H](C(=O)N[C@@H](CCCNC(=N)N)C(=O)NCC(=O)N[C@@H](CCCNC(=N)N)C(=O)NCC(=O)O)C(C)C)[C@@H](C)CC)C(=O)O |  | mouse DIO | dose not given, day 32 chronic |  | AST | 81.9 ± 3.9 U/L
CCCCN1C(=O)c2cccc3c(NCCCCCCCCCCN4CCOCC4)ccc(c23)C1=O |  | ethylene glycol |  |  | fluorescence lifetime | 7.1 ns
CCCSc1c(F)c(F)c(S(N)(=O)=O)c(F)c1F |  |  | sulfonamide group |  | pKa | 8.15
C=Cc1c(C)c2cc3nc(c(CC(=O)OCCOCCOCCOC)c4[nH]c(cc5nc(cc1[nH]2)C(C)=C5CC)c(C)c4C(=O)OCCOCCOCCOC)[C@@H](CCC(=O)OCCOCCOCCOC)[C@@H]3C | LC-MS | methanol-water 9:1 | 4 h, pH 8.0 |  | compound loss | 100%
COc1cccc(OC)c1-c1cc(C(=O)NC2(C(=O)O)C3CC4CC(C3)CC2C4)nn1-c1ccc(C(=O)N(C)CCOCCOCCN(C)C(=O)[C@H](CCCCNC(=O)[C@H](CC(C)C)NC(=O)C2OC2C(=O)O)NC(=O)CN2CCN(CC(=O)[O-])CCN(CC(=O)[O-])CCN(CC(=O)[O-])CC2)cc1C(C)C.[177Lu+3] (mixture of isomers) |  | mouse, HT-29 xenograft, liver | 4 h post injection |  | tissue uptake | 1.78 %ID/g
COc1ccc(Nc2nc(Nc3ccc(OCCOCCOCC[18F])cc3)ncc2Br)cc1 |  | ICR mice, S180 tumour | intravenous, 370 kBq, 30 min | relative to: tumour over blood | uptake ratio | 1.34
[123I]c1ccc2nc(-c3ccc(-n4ccnn4)nc3)cn2c1 |  | male Wistar rat, lung | intravenous, 4 MBq, 3 h |  | tracer uptake | 0.065 %ID/g
Cc1cccc(Cn2ncc3c4cc(F)c(CN(C)C)cc4n(C)c3c2=O)n1 |  | Dutch-belted rabbit, plasma | intravitreal, 100 µM vitreous, 14.00 days |  | plasma concentration | not detected
O=C(Nc1cnccc1-c1ccc([18F])cc1)c1ccnc(NC(=O)C2CC2)c1 |  | mice, transgenic, GSK-3β, early-stage, feces | intravenous, dose not given, 120 min |  | SUV | 5.53
COC1CN([C@H]2CC[C@H]([C@@]3(C)Oc4c(Cl)cc(C(=O)NCc5c(SC)cc(C)[nH]c5=O)c(C)c4O3)CC2)C1 |  | female CB17 SCID mice, KARPAS-422 xenograft, plasma | 25 mg/kg, day 1 |  | AUC(0-t) | 1.99 µg·h/mL
Cc1cc(-c2ccc(C(=O)[C@@H]3CCCC[C@H]3C(=O)Nc3cnn4c3C(=O)NCC4)cc2)[nH]n1 |  | human, faeces | oral, 200 mg, 0-192 h | relative to: dose | cumulative recovery of radioactivity | 73.2%
COc1cccc(OC)c1-c1cc(C(=O)NC2(C(=O)O)C3CC4CC(C3)CC2C4)nn1-c1ccc(C(=O)N(C)CCCN(C)C(=O)[C@H](CCCCNC(=O)[C@H](CC(C)C)NC(=O)C2OC2C(=O)O)NC(=O)CN2CCN(CC(=O)[O-])CCN(CC(=O)[O-])CCN(CC(=O)[O-])CC2)cc1C(C)C.[177Lu+3] (mixture of isomers) |  | mouse, HT-29 xenograft | 168 h post injection, biodistribution | relative to: tumour over heart uptake | tumour-to-heart ratio | 27.2
[18F]CCn1cc(COc2ccc(-c3nncnn3)cc2)nn1 |  | LS174T xenograft, BALB/c nude mouse, tumour | intravenous, 1 h, together with: CC49-TCO 72 h before |  | tumour uptake | 2.7 ± 0.4 %ID/g
CNCc1ccc(-c2cc(=O)c3ccc4[nH]c(C(F)(F)F)nc4c3o2)cc1 |  | ICR mice, plasma | oral, 5 mg/kg |  | t1/2 | ~4.09 h
COc1ccc2c(c1)CCn1c[n+]3c(c1-2)-c1ccc(OC)cc1CC3 |  | female NSG mice, blood | 6 mg/kg, day 14, 5 days per week |  | Neutrophils | 67.7 ± 25.4%
O=C(c1ccccc1)N1C(c2ccc(OCC3CCN(CCCF)C3)cc2)c2ccc(O)cc2CC12CC2 (stereo not drawn) |  | C57BL/6J mouse, plasma | oral, 25 mg/kg, group mean |  | MRT(0-inf) | 3.88 h
COc1cc(-c2cc(=O)c3ccc(OCCCn4c(Cl)nc5ccccc54)cc3o2)cc(OC)c1OC |  | C57BL/J mice, healthy, serum | intravenous, 10 mg/kg every other day, 10 days |  | ALT | 55.1 ± 11.9 U/L
Cc1cc(C)n(CCN(CCN)CCCCCCNC(=O)[C@@H](N)Cc2c[nH]cn2)n1.[99Tc+].[C-]#[O+].[C-]#[O+].[C-]#[O+] |  | BALB/c nude mice A549 xenograft | intravenous, 15 min | relative to: tumour over lung | tumour-to-tissue ratio | 1.5
CN([O-])C(=O)CN1CCNCCN(CC(=O)N(C)[O-])CC1.[89Zr+4] |  | mouse, bone | intravenous, 4 h |  | tracer uptake | 0.93 %ID/g
COCC1CN(C2CCN(c3cc(OC)c(Nc4ncc(Br)c(Nc5ccc6c(c5P(C)(C)=O)OCCO6)n4)cc3C)CC2)C1 | first-in-human trial | human | oral, 150 mg once daily | treatment-related | serious adverse events | 16.7%

Excerpt of the above:
SMILES | test | test system | conditions | how to read | quantity | result
CC(C)C[C@H](NC(=O)[C@@H](CCCCNC(=O)[C@@H](Cc1ccccc1)NC(=O)CCCCCCCNC(=O)CN1CCN(CC(=O)O)CCN(CC(=O)O)CCN(CC(=O)O)CC1)NC(=O)[C@H](Cc1ccc(O)cc1)NC(=O)[C@H](CO)NC(=O)[C@H](Cc1c[nH]c2ccccc12)NC(=O)[C@H](Cc1c[nH]cn1)NC(=O)[C@@H]1CCC(=O)N1)C(=O)N[C@@H](CCCNC(=N)N)C(=O)N1CCC[C@H]1C(=O)NCC(N)=O [indium-111 labelled] |  | male athymic nude mice, DU-145 prostate cancer xenograft, tumour | intravenous, 0.037 MBq, 2 h | relative to: tumour over muscle | tumour-to-tissue ratio | 4.82
C=C(NC(=O)c1csc(-c2nc3c(cc2O)-c2nc(cs2)C(=O)NC(C(C)O)C(=O)NC(=C(C)OC)c2nc(cs2)C(=O)NC2c4nc(cs4)C(=O)NC(COC(=O)c4c5c6c(cccc6n4O)COC(=O)C(OC4CC(C)(O)C(N(C)C)C(C)O4)C2OC5)c2nc-3cs2)n1)C(N)=O (stereo not drawn) |  | ICR mice, Streptococcus pneumoniae ATCC 49169 infected, immunocompromised, blood | intravenous, 32 mg/kg/day once daily |  | Tmax | 0.08 h
